Measured values from different studies.
Compare with care: the assays were run in different laboratories. Values joined by “and” are separate records of one study, mostly repeats; a detail may differ. Numbers after ± are the reported error.

Structure (SMILES) = CC(C)[C@H](NC(=O)[C@@H]1CCC(=O)NCCC(=O)NCCCC[C@H](NC(=O)[C@H](CCC(N)=O)NC(=O)[C@@H](NC(=O)[C@H](Cc2c[nH]c3ccccc23)NC(=O)[C@@H]2CCCN2C(=O)[C@@H]2CCCN2C(=O)[C@H](Cc2ccccc2)NC(=O)[C@H](CO)NC(=O)CNC(=O)[C@@H](N)CSSC[C@H](NC(=O)[C@H](CCCNC(=N)N)NC(=O)[C@H](CCCNC(=N)N)NC(=O)[C@H](CCCNC(=N)N)NC(=O)[C@H](CCCNC(=N)N)NC(=O)[C@H](CCCNC(=N)N)NC(=O)[C@@H](N)CCCNC(=N)N)C(=O)O)C(C)C)C(=O)N[C@@H]([C@@H](C)O)C(=O)N1)C(=O)O; target = Disks large homolog 4, PDZ3 domain (Homo sapiens, UniProt P78352); test = binding, surface plasmon resonance; conditions = pH 7.5, 25 °C; endpoint = kon; result = 261000 M⁻¹ s⁻¹
Structure (SMILES) = O=C(OC1Cc2c(O)cc(O)cc2OC1c1ccc(O)c(O)c1)c1cc(O)c(O)c(O)c1 (single isomer, unassigned; (-)); target = Xanthine dehydrogenase/oxidase (XDH, Bos taurus, UniProt P80457); test = fluorescence quenching; conditions = concentration not given, 25 °C; endpoint = number of binding sites; result = 1.1
Structure (SMILES) = C[n+]1cn([C@@H]2O[C@H](COP(=O)(O)OP(=O)([O-])OP(=O)(O)OP(=O)(O)OC[C@H]3O[C@@H](n4cnc5c(=O)[nH]c(N)nc54)[C@H](O)[C@@H]3O)[C@@H](O)[C@H]2O)c2nc(N)nc(O)c21; target = m7GpppX diphosphatase (DCPS, Homo sapiens, UniProt Q96C86); test = substrate, HPLC; conditions = 0.04 mM, 60 min, 37 °C; endpoint = hydrolysis; result = ~90% and 90%
Structure (SMILES) = CNc1ccccc1C(=O)O[C@H]1C[C@H](n2cnc3c(N)ncnc32)O[C@@H]1COP(=O)(O)OP(=O)(O)O; target = Unconventional myosin-Va (Gallus gallus, UniProt Q02440, D297C/G292C/I296C/S293C/V295G); test = stopped-flow FRET; conditions = 4 °C, added: MgCl2 10 mM; endpoint = dissociation rate constant; result = 0.68 ± 0.01 s⁻¹
Structure (SMILES) = O=C(CCC1CO1)Oc1ccc([N+](=O)[O-])cc1 (racemic); target = Epoxide hydrolase 1 (EPHX1, Homo sapiens, UniProt P07099); test = substrate, absorbance; conditions = 50 µM, pH 9.0, 37 °C, human enzyme; endpoint = signal to noise ratio; result = > 40
Structure (SMILES) = O=C(O[C@H]1[C@@H]2C=CO[C@@H](O[C@@H]3O[C@H](CO)[C@@H](O)[C@H](O)[C@H]3O)[C@@H]2[C@@]2(CO)O[C@@H]12)c1ccc(O)cc1; target = Organic anion transporter 3 (SLC22A8, Homo sapiens, UniProt Q8TCC7); test = uptake, substrate; test system = HEK293 overexpressing SLC22A8; endpoint = Hill coefficient; result = 1
Structure (SMILES) = Cc1ccccc1-c1cc(N2CCCCC2)ccc1N(C)C(=O)C(C)(C)c1cc(C(F)(F)F)cc(C(F)(F)F)c1; target = Substance-P receptor (TACR1, Homo sapiens, UniProt P25103); scale = relative to: pH 6.0 over pH 7.4; endpoint = affinity ratio; result = ~2 fold
Structure (SMILES) = Cc1ccc(-c2csc(CS(=O)(=O)C(C)(C)C)n2)cc1; target = Trypanothione synthetase (Trypanosoma brucei, UniProt Q586P2); test = inhibitor; conditions = concentration not given; endpoint = enzyme activity; result = inactive
Structure (SMILES) = Oc1cc(Cl)c(O)c2ccccc12; target = Serine/threonine-protein kinase PAK 1 (PAK1, Homo sapiens, UniProt Q13153, T423E); test = inhibitor; conditions = 40 µM, 0.5 h; endpoint = MBP phosphorylation; result = decreased
Structure (SMILES) = [3H]C([3H])([3H])c1cnccc1CN1C[C@@H](c2cc(F)c(F)c(F)c2)CC1=O; target = Synaptic vesicle glycoprotein 2A (SV2A, Homo sapiens, UniProt Q7L0J3); test = radioligand binding, autoradiography; test system = human, post-mortem hippocampus; conditions = 5 nM; endpoint = total binding; result = 408 fmol/mg
Structure (SMILES) = CC(=O)[O-].O.O.[O-]c1ccc(Br)cc1C=NCCN1CCOCC1.[Zn+2]; target = Albumin (ALB, Bos taurus, UniProt P02769); test = binding, UV absorption titration, measured: BSA band at 278 nm; conditions = pH 7.2, 25 °C; scale = relative to: free BSA; endpoint = absorption band blue shift; result = 3 nm
Structure (SMILES) = N=C(N)NCCC[C@H](NC(=O)[C@H](CC(=O)O)NC(=O)[C@@H]1CSCCCC(=O)NCC(=O)N[C@@H](Cc2c[nH]cn2)C(=O)N[C@H](Cc2ccccc2)C(=O)N[C@@H](CCCNC(=N)N)C(=O)N[C@H](Cc2c[nH]c3ccccc23)C(=O)N1)C(=O)N[C@@H](Cc1ccccc1)C(=O)NCC(N)=O; target = Melanocortin receptor 4 (MC4R, Homo sapiens, UniProt P32245); test = cAMP accumulation; test system = HEK293 expressing MC4R; conditions = concentration not given; endpoint = functional activity; result = inactive

A few entries again:
Structure (SMILES) = Cc1ccccc1-c1cc(N2CCCCC2)ccc1N(C)C(=O)C(C)(C)c1cc(C(F)(F)F)cc(C(F)(F)F)c1; target = Substance-P receptor (TACR1, Homo sapiens, UniProt P25103); scale = relative to: pH 6.0 over pH 7.4; endpoint = affinity ratio; result = ~2 fold
Structure (SMILES) = C[n+]1cn([C@@H]2O[C@H](COP(=O)(O)OP(=O)([O-])OP(=O)(O)OP(=O)(O)OC[C@H]3O[C@@H](n4cnc5c(=O)[nH]c(N)nc54)[C@H](O)[C@@H]3O)[C@@H](O)[C@H]2O)c2nc(N)nc(O)c21; target = m7GpppX diphosphatase (DCPS, Homo sapiens, UniProt Q96C86); test = substrate, HPLC; conditions = 0.04 mM, 60 min, 37 °C; endpoint = hydrolysis; result = ~90% and 90%
